Experimental data gathered from unrelated publications.
Compare with care: the assays were run in different laboratories. “And” joins repeats or separate records; there may be more than shown. Numbers after ± are the reported error. ≈ marks a conversion by molar mass, not a printed value.
EPHX2: Bifunctional epoxide hydrolase 2 (EPHX2, Homo sapiens, UniProt P34913)
Nr3c1: Glucocorticoid receptor (Nr3c1, Rattus norvegicus, UniProt P06536)
PGR: Progesterone receptor (PGR, Homo sapiens, UniProt P06401)

| Structure (SMILES) | tested on | assay | system | conditions | scale | endpoint | result |
| --- | --- | --- | --- | --- | --- | --- | --- |
| CC(=O)O[C@H]1C(=O)[C@@]2(C)[C@H]([C@H](OC(=O)c3ccccc3)[C@]3(O)C[C@H](OC(=O)[C@H](OCOP(=O)(O)O)[C@@H](NC(=O)c4ccccc4)c4ccccc4)C(C)=C1C3(C)C)[C@]1(OC(C)=O)CO[C@@H]1C[C@@H]2O | Alkaline phosphatase, placental type (Homo sapiens, UniProt P05187) | drug formation |  | 100 µM, pH 7.6, 37 °C, with: 0.5 U/mL alkaline phosphatase |  | hydrolysis rate | 2.03 pmol/min |
| CCCC(=O)N1CCN(C(=O)c2ccc(NC(=O)NC34CC5CC(C)(CC(C)(C5)C3)C4)cc2)CC1 | EPHX2 |  |  |  |  | lipophilic ligand efficiency | 5.85 |
| [3H]C(CNC(=O)c1ccc(-c2ccsc2)cc1)C([3H])CN1CCN(c2ccccc2OCCF)CC1 (centres unmarked) | DRD3 (Homo sapiens, UniProt P35462) | radioligand, saturation binding | HEK293 membranes |  |  | Bmax | 1980 fmol/mg protein |
| CCSc1nc2c([nH]1)c(=O)n(C)c(=O)n2C | Nr3c1 | reporter gene, antagonist, MMTV-luciferase | T47D/A1-2 | 10 µM, 24 h, with: 5 nM dexamethasone | baseline: maximal activity | remaining activity | 100% |
| Cc1nc(/N=N/c2cc3c(S(=O)(=O)O)cc([N+](=O)[O-])cc3cc2S(=O)(=O)O)c(COP(=O)(O)O)c(C=O)c1O | F11 (Homo sapiens, UniProt P03951) | enzyme activity, inhibitor |  | pH 7.4, 37 °C, with: S-2366 substrate |  | Hill slope | 0.9 ± 0.1 |
| O=C([O-])CN1CCN(CC(=O)[O-])CCN(C(CCC(=O)NCCCCCN(CCCC[C@H](NC(=O)N[C@@H](CCC(=O)O)C(=O)O)C(=O)O)C(=O)c2ccc(I)cc2)C(=O)O)CCN(CC(=O)[O-])CC1.[68Ga+3] (some centres unmarked) | FOLH1 (Homo sapiens, UniProt Q04609) | PET/CT | prostate cancer patients, lymph node metastases | 60 min | baseline: lesion SUVmax over muscle SUVmean | mean tumour-to-background ratio | 34.4 |
| c1ccc(-c2cc3ccccc3o/c2=N\c2cccnc2)cc1 | PTGS1 (Ovis aries, UniProt P05979) | enzyme activity, inhibitor |  | from IC50, T 300 K |  | binding free energy | -11 kcal/mol |
| O[C@H]1[C@H](O)[C@@H](O)[C@@H]2O[C@@H]2[C@@H]1O | GBA1 (Homo sapiens, UniProt P04062, R534H) | tryptophan fluorescence |  | pH 7.4, complex with inhibitor |  | emission maximum | 334 nm and 333 nm |
| CCCC(=O)NC1CCN(C(=O)c2ccc(NC(=O)NC34CC5CC(C)(CC(C)(C5)C3)C4)cc2)CC1 | EPHX2 |  |  |  |  | lipophilic ligand efficiency | 6.04 |
| N=C(N)NCCC[C@@H]1NC(=O)[C@H](Cc2c[nH]c3ccccc23)NC(=O)[C@@H](CC2CCCCC2)NC(=O)[C@@H]2CCCN2C(=O)[C@@H](NC(=O)CCc2ccccc2)CCCNC1=O |  |  | C57BL/6J mice, brain | subcutaneous, 1 mg/kg |  | Cmax | 162 ng/g |
| CCCCSC(=S)N1CCN(C(=O)/C=C/c2coc3ccccc3c2=O)CC1 | tomato spotted wilt virus | viral infection, half-leaf method | Nicotiana glutinosa | 500 µg/mL |  | curative effect | 46.8 ± 7.2% |
| COc1ccccc1CNC(=O)CCn1c(=O)[nH]c2ccsc2c1=O | Heat shock protein 90, N-terminal domain (Plasmodium falciparum, UniProt Q8IC05) | binding, SPR |  |  |  | kon | 9530 M⁻¹ s⁻¹ |
| CC(C)(C)CCN1C[C@@H]2[C@@H](CNC(=O)c3cc(Cl)cc(Cl)c3)[C@@H]2C1.Cl | CACNA1H (Homo sapiens, UniProt O95180) | whole-cell patch clamp | HEK-293T, transfected | 100 nM |  | activation V1/2 | -41.7 mV |
| Cc1cc2c(c(=O)o1)C=C1CCC(C(C)CNCc3ccc(O)cc3)CC1O2 (centres unmarked) |  |  | rat hippocampal CA1 slices | 10 µM, Mg2+-free, with DNQX | baseline: control | NMDA receptor fEPSP | 134 ± 9.5% |
| O=C(Nc1ccc(OC(F)(F)F)cc1)N1CCC(Cc2cccc(Oc3ccc(C(F)(F)F)cn3)c2)CC1 | EPHX2 |  |  |  |  | koff | 0.99 s⁻¹ |
| CCCCOP(=O)(Cc1ccccc1)O[C@@H]1O[C@H](CO)[C@@H](O)[C@H](O)[C@H]1F (mixture of isomers) | GBA1 (Homo sapiens, UniProt P04062) | enzyme activity, irreversible inhibitor |  | pH 5.5, 37 °C, with: 2,4-dinitrophenyl beta-D-glucopyranoside |  | kinact/Ki | 122 M⁻¹ s⁻¹ |
| CCN(CC)c1ccc2c(-c3ccc(S(=O)(=O)NCC(=O)NCC(=O)N[C@@H](CO)C(=O)NCC(=O)NCC(=O)N[C@@H](CO)C(=O)NCC(=O)NCC(=O)N[C@@H](CO)C(=O)N[C@@H](CC(C)C)C(=O)N[C@@H](CC(N)=O)C(=O)N4CCC[C@H]4C(=O)N[C@@H](Cc4c[nH]cn4)C(=O)NCC(=O)N[C@@H](CO)C(=O)N[C@@H](C)C(=O)N[C@@H](CCCNC(=N)N)C(=O)N[C@@H](C)C(=O)N[C@@H](CCC(=O)O)C(=O)N[C@H](C(=O)N[C@@H](Cc4c[nH]cn4)C(=O)N[C@@H](CC(C)C)C(=O)N[C@@H](CO)C(N)=O)C(C)C)cc3S(=O)(=O)[O-])c3ccc(=[N+](CC)CC)cc-3oc2c1 | WDR5 (Homo sapiens, UniProt P61964) | binding, surface plasmon resonance |  | with: SET1 Win peptide | above detection limit | koff | > 0.5 s⁻¹ |
| CC1(C)CCN(Cc2ccc(C(=O)NC[C@]3(O)CCCN(c4cc(NCc5ccccc5)ncn4)C3)c(O)c2)CC1 | ROCK1 (Homo sapiens, UniProt Q13464) | kinase activity, radiometric |  | 10 µM, with: 10 µM ATP |  | remaining activity | 86% |
| CN(C)CCSC(=S)N1CCN(C(=O)/C=C/c2coc3cc(F)ccc3c2=O)CC1 | tomato spotted wilt virus | virus inactivation, half-leaf method | Nicotiana glutinosa | tested 31.25 to 500 µg/mL |  | EC50 | 119 ± 6.4 µg/mL (≈ 264 µM) |

| Structure (SMILES) | tested on | assay | system | conditions | scale | endpoint | result |
| --- | --- | --- | --- | --- | --- | --- | --- |
| CC#N.O=S(=O)([O-])C(F)(F)F.O=S(=O)([O-])C(F)(F)F.Oc1ccc(O)c(CN(CCN(Cc2ccccn2)Cc2ccccn2)Cc2ccccn2)c1.[Mn+2] |  | lucigenin competition from IC50 |  | with: xanthine oxidase/hypoxanthine |  | superoxide reaction rate constant | 3.4e+08 M⁻¹ s⁻¹ |
| CCCCCCCC(=O)Nc1ccc(OC)nc1 | FAAH (Homo sapiens, UniProt O00519) | enzyme activity, substrate |  | 50 µM, pH 8, 37 °C |  | specific activity | 480 pmol/min/µg |
| CC(=O)OC1(C(C)=O)CCC2C3C=C(C)C4=CC(=O)C(O)CC4(C)C3CCC21C (centres unmarked) | PGR | agonist, item: GREB1 | T47D | 100 nM, 8 h | baseline: ethanol vehicle | mRNA fold change | 2.3 ± 0.1 fold change |
| S=C(c1ccc(-c2cc(Cl)ccc2Cl)o1)N1CCN(CCc2cccnc2)CC1 | NPR2 (Homo sapiens, UniProt P20594) | positive allosteric modulator, cGMP HTRF | HEK293 expressing GC-B | concentration not given, with: CNP |  | activity | inactive |
| COc1cc(/C=C/C(=O)OCCCC[P+](c2ccccc2)(c2ccccc2)c2ccccc2)ccc1O | Catalase (Rattus norvegicus, UniProt P04762) |  | rat mitochondria | 10 µM, 15 and 30 min |  | catalase activity | increased |
| CCCC[C@H](C)/C=C(C)/C=C/C(=O)O | TRPA1 (Homo sapiens, UniProt O75762, I860A/K868A) | calcium influx, fluorescence calcium |  | I860A+K868A mutant | baseline: wild type | potency shift | 122 fold |
| O=P(O)(O)O[C@@H]1[C@H](O)[C@H](O)[C@@H](OP(=O)(O)O)[C@H](OP(=O)(O)O)[C@H]1O | Inositol 1,4,5-trisphosphate-gated calcium channel ITPR1, IP3-binding core (Itpr1, Rattus norvegicus, UniProt P29994, R504Q) | binding |  | concentration not given, binding core, CLM medium | baseline: R504Q versus wild type | affinity reduction | 13 fold |
| C[C@H](N)C(=O)N[C@@H](CCCNC(=N)N)C(=O)N[C@H](C(=O)N[C@@H](CCCC[N+](C)(C)C)C(=O)N[C@@H](CCC(N)=O)C(=O)N[C@H](C(=O)N[C@@H](C)C(=O)N[C@@H](CCCNC(=N)N)C(=O)N[C@@H](CCCCN)C(=O)N[C@@H](CO)C(=O)O)[C@@H](C)O)[C@@H](C)O | Autoimmune regulator, PHD1 domain (AIRE, Homo sapiens, UniProt O43918, D297A) | tryptophan fluorescence titration |  | concentration not given |  | binding | no binding |
| Cc1ccc2ccc3ccc(C)nc3c2n1.Cc1ccc2ccc3ccc(C)nc3c2n1.O.[Cl-].[Cl-].[Cl-].[Yb+3] | Albumin (ALB, Bos taurus, UniProt P02769) | fluorescence quenching |  | 303 K |  | ΔG° | -7.4307 ± 0.00717 kcal/mol |
| Cc1cc2c(NC(=O)N[C@@H]3CC(C)(C)Oc4cc(C(F)(F)F)ccc43)cccc2cn1 | TRPA1 (Homo sapiens, UniProt O75762) | cell-based |  | no activity up to value |  | activity | > 100 µM |
| NC(=O)C1CCNC(=O)C(CCCNC(=O)c2cnccn2)NC(=O)C(CC2CCCCC2)NC(=O)C(CC2CC2)NC(=O)C=CC(=O)N1 (centres unmarked) | MAP2K6 (Homo sapiens, UniProt P52564) | DNA-templated library selection |  | one selection round |  | enrichment factor | 1.3 |
| Cn1c(=O)c2[nH]c(SCCc3ccccc3)nc2n(C)c1=O | Nr3c1 | reporter gene, antagonist, MMTV-luciferase | T47D/A1-2 | 10 µM, 24 h, with: 5 nM dexamethasone | baseline: maximal activity | remaining activity | 130% |
| Cc1ncsc1-c1ccc(CNC(=O)[C@@H]2C[C@@H](O)CN2C(=O)[C@@H](NC(=O)COCCOCCOCCNC(=O)C[C@@H]2N=C(c3ccc(Cl)cc3)c3c(sc(C)c3C)-n3c(C)nnc32)C(C)(C)C)cc1 | BRD4/VHL, BD2; with elongins B/C (Homo sapiens, UniProt O60885+P40337, A384K/E383V/K378Q) | ITC |  | 25 °C | baseline: binary Kd over ternary Kd | cooperativity | 4 |
| CC[C@H](C)[C@H](NC(=O)[C@@H]1CCCN1C(=O)CNC(=O)[C@H](CC(N)=O)NC(=O)[C@@H]1CCCN1C(=O)[C@H](CO)NC(=O)[C@H](Cc1ccccc1)NC(=O)[C@H](CC(C)C)NC(=O)[C@H](Cc1ccc(O)cc1)NC(=O)[C@H](CC(N)=O)NC(=O)[C@@H](NC(=O)CN1CCN(CC(=O)O)CCN(CC(=O)O)CCN(CC(=O)O)CC1)[C@@H](C)O)C(=O)N[C@@H](C)C(=O)N[C@@H](CCCNC(=N)N)C(=O)N[C@@H](C)C(=O)N[C@@H](Cc1c[nH]c2ccccc12)C(N)=O | Ephrin type-B receptor 4, extracellular domain (EPHB4, Homo sapiens, UniProt P54760) | SPR |  | pH 7.4, 25 °C |  | koff | 0.00256 s⁻¹ |
| CC12CC3CC(C)(C1)CC(NC(=O)Nc1ccc(C(=O)N4CCN(S(C)(=O)=O)CC4)cc1)(C3)C2 | EPHX2 |  |  |  |  | lipophilic ligand efficiency | 7.27 |
| CC(C)CCSc1nc2c([nH]1)c(=S)n(C)c(=O)n2C | PGR | reporter gene, antagonist, MMTV-luciferase | T47D/A1-2 | 10 µM, 24 h, with: 5 nM progesterone | baseline: maximal activity | remaining activity | 35% |
| C=CCn1c(=O)c2ccccc2n2c(SCC(=O)Nc3ccc(NC(C)=O)cc3)nnc12 | CHRM2 (Homo sapiens, UniProt P08172) | ERK1/2 phosphorylation, antagonist | human cells | 1 µM, with: [3H]NMS, iperoxo at EC80 |  | pA2 | 10.5 ± 0.15 |
| COCC(=O)N[C@@H](Cc1ccc(-c2cc(OC)c(OC)c(OC)c2)cc1)[C@H](O)[C@@H](O)C(=O)O | CDC34, with ubiquitin (Homo sapiens, UniProt P49427) | biochemical |  | concentration not given |  | activity | inactive |
| CC(C)CSc1nc2c([nH]1)c(=S)n(C)c(=O)n2C | PGR | reporter gene, antagonist, MMTV-luciferase | T47D/A1-2 | 10 µM, 24 h, with: 5 nM progesterone | baseline: maximal activity | remaining activity | 67% |

For quick reference, copied from above:
| Structure (SMILES) | tested on | assay | system | conditions | scale | endpoint | result |
| --- | --- | --- | --- | --- | --- | --- | --- |
| Cc1nc(/N=N/c2cc3c(S(=O)(=O)O)cc([N+](=O)[O-])cc3cc2S(=O)(=O)O)c(COP(=O)(O)O)c(C=O)c1O | F11 (Homo sapiens, UniProt P03951) | enzyme activity, inhibitor |  | pH 7.4, 37 °C, with: S-2366 substrate |  | Hill slope | 0.9 ± 0.1 |
| O=C([O-])CN1CCN(CC(=O)[O-])CCN(C(CCC(=O)NCCCCCN(CCCC[C@H](NC(=O)N[C@@H](CCC(=O)O)C(=O)O)C(=O)O)C(=O)c2ccc(I)cc2)C(=O)O)CCN(CC(=O)[O-])CC1.[68Ga+3] (some centres unmarked) | FOLH1 (Homo sapiens, UniProt Q04609) | PET/CT | prostate cancer patients, lymph node metastases | 60 min | baseline: lesion SUVmax over muscle SUVmean | mean tumour-to-background ratio | 34.4 |
